{"data": "Results of several laboratories", "target": "Rho-associated protein kinase 1 (ROCK1, Homo sapiens, UniProt Q13464)", "note": "Compare with care: the assays were run in different laboratories."}
{"Compound": "CCn1cc(C(=O)O)c(=O)c2c(N)c(F)c(NC3CCCCC3)cc21", "test": "kinase activity", "conditions": "0.1 µM, added: ATP at Km", "endpoint": "inhibition", "result": "1.5%"}
{"Compound": "Cc1[nH]nc2c1N=C(c1ccccc1Cl)c1cnc(N3CCOCC3)cc1N2", "test": "enzyme activity, inhibitor", "conditions": "0.5 µM", "endpoint": "inhibition", "result": "1%"}
{"Compound": "COc1c(OCCCN2CCOCC2)ccc2c1N=C(NC(=O)c1cnc(N)nc1)N1CCN=C21", "test": "kinase activity, inhibitor", "conditions": "1 µM", "scale": "baseline: untreated control", "endpoint": "remaining activity", "result": "115%"}
{"Compound": "O=C=[N][Ru-4]123([n]4c5ccc(O)cc5c5c6c(c7cc(F)c[n+]1c7c54)C(=O)NC6=O)[S+]1CC[S+]2CC[S+]3CC1 (stereo not shown)", "test": "enzyme activity", "conditions": "100 nM, human enzyme, added: 10 µM ATP", "scale": "baseline: untreated", "endpoint": "remaining activity", "result": "113%"}
{"Compound": "COc1cc(Nc2nc(C)cc(-c3cnn4nc(OC)ccc34)n2)cc(C(F)(F)F)c1", "test": "binding, competition with immobilised ligand", "conditions": "1 µM", "endpoint": "remaining binding", "result": "99%"}
{"Compound": "CN1CCN(Cc2ccc(-c3ccc(CO[C@H]4CCC[C@@H]4NC(=O)c4cc(-c5cnn(C)c5)cnc4N)cc3)cc2)CC1", "test": "enzyme activity, inhibitor", "conditions": "0.1 µM", "endpoint": "inhibition", "result": "7%"}
{"Compound": "CN1CC[C@@H](COc2cnc(C#N)cc2-c2ccn3nc(NC(=O)C4CC4)cc3c2)C1", "test": "enzyme activity, inhibitor", "conditions": "1 µM", "endpoint": "inhibition", "result": "-8%"}
{"Compound": "C=CC(=O)N1CCCC(n2c(=O)c3ncccc3n(Cc3ccc(Oc4ccccc4)cc3)c2=O)C1 (stereo not shown)", "test": "cell-free assay, competition with immobilised ligand", "conditions": "1 µM", "endpoint": "remaining binding", "result": "81%"}
{"Compound": "Cc1cccc(O[C@H]2CCC[C@@H](C(C)CNCc3ccncc3)C2)c1 (relative stereo)", "test": "enzyme activity, inhibitor", "conditions": "1 µM", "endpoint": "inhibition", "result": "1%"}
{"Compound": "Cc1cnc2nc1Nc1cccc(c1)COC/C=C/COCc1cc(ccc1OCCN1CCOCC1)N2", "test": "binding, competition with immobilised ligand", "conditions": "0.1 µM", "endpoint": "remaining binding", "result": "69%"}
{"Compound": "COc1ccc(C(=O)/C=C/c2ccccc2-c2c[nH]c3ccc(C#N)cc23)c(O)c1", "test": "enzyme activity, inhibitor", "conditions": "20 µM", "endpoint": "inhibition", "result": "10%"}
{"Compound": "COc1ccc(NC(=O)Nc2ccc3c(c2)C(=O)N(C(C)CO)CC(C)C(CN(C)Cc2ccc4c(c2)OCO4)O3)cc1 (stereo not shown)", "test": "kinase activity, KinaseProfiler", "conditions": "0.03 µM, species human", "scale": "baseline: control", "endpoint": "remaining activity", "result": "109%"}
{"Compound": "O=C(O)CCC(=O)c1cccc(NS(=O)(=O)c2c[nH]c3ncccc23)c1", "test": "kinase activity, radiometric", "conditions": "10 µM", "endpoint": "remaining activity", "result": "112%"}
{"Compound": "CC(C)=CC1OC(C)(C)C2C=C3C(=O)C(Cl)=CC(O)C3C3C(O)C4OC4C(=O)C132 (stereo not shown)", "test": "cell-free assay, competition with immobilised ligand", "conditions": "10 µM", "endpoint": "remaining binding", "result": "96%"}
{"Compound": "C=CC(=O)N1Cc2nc(-c3cc(-c4cc(Cl)cnc4Cl)c(F)cc3F)n(-c3ccncn3)c2C1", "test": "cell-free assay, inhibitor", "conditions": "1 µM", "endpoint": "inhibition", "result": "6.9%"}
{"Compound": "O=C(Cc1ccc(OCc2ccccc2)cc1)NC1(C(=O)O)CCN(C(=O)c2ccc(-c3cccc(Cl)c3)cc2)CC1", "test": "enzyme activity, inhibitor", "conditions": "10 µM", "endpoint": "activity vs control", "result": "103%"}
{"Compound": "NC(=O)[C@@H](O)C[C@H]1CCc2sc3ncnc(O[C@H]4CC[C@H](N5CCOCC5)CC4)c3c21", "test": "enzyme activity, inhibitor", "conditions": "10 µM", "endpoint": "inhibition", "result": "12%"}
{"Compound": "COc1cc(-n2cc3cc(F)cc(C(N)=O)c3n2)cc(Cl)c1C1CC(O)(CCO)Cc2ccccc21 (stereo not shown)", "test": "enzyme activity, inhibitor", "conditions": "10 µM", "endpoint": "inhibition", "result": "0.17%"}
{"Compound": "C=CC(=O)Nc1cccc(-c2cnc3[nH]cc(C(=O)NC(C)(C)C)c3n2)c1", "test": "enzyme activity, inhibitor", "conditions": "0.1 µM", "endpoint": "inhibition", "result": "31%"}
{"note": "A few entries again:"}
{"Compound": "CC(C)=CC1OC(C)(C)C2C=C3C(=O)C(Cl)=CC(O)C3C3C(O)C4OC4C(=O)C132 (stereo not shown)", "test": "cell-free assay, competition with immobilised ligand", "conditions": "10 µM", "endpoint": "remaining binding", "result": "96%"}
